Results gathered from unrelated publications.
Protocols differ between the studies behind these lines. Values joined by “and” are separate records of one study, mostly repeats; a detail may differ. ± marks the error that the study gave.

Structure (SMILES) = O=C1c2ccncc2C(=O)c2c1[nH]c1ccccc21; cell line = pulmonary arterial smooth muscle cells, PAH patient; test = no effect; setting = concentration not given; quantity = total Drp1 protein level; result = no effect
Structure (SMILES) = O=C(C[C@@H](C(F)F)n1ccc(F)n1)N1CCC(O)(Cn2cnc3c(cnn3-c3ccc(F)cc3)c2=O)CC1; cell line = CHP-212 parental (wild-type USP7); test = PI flow cytometry; setting = 0.1 µM, 24 h; quantity = cells in G1 phase; result = 65.2% and 66.5% and 67.7%
Structure (SMILES) = CCCn1c(=O)c2[nH]c(-c3ccc(OCC(=O)Nc4ccc(C#N)cc4)cc3)nc2n(CCC)c1=O; cell line = H9c2; test = agonist; setting = concentration not given, 20 min, A2B receptor-mediated, with: pertussis toxin overnight; quantity = ERK1/2 activation; result = inhibited
Structure (SMILES) = CS(=O)(=O)c1ccc(C(=O)Nc2ccc(Cl)c(-c3ccccn3)c2)c(Cl)c1; cell line = HD-MB03; setting = 168 h; quantity = IC50; result = inactive
Structure (SMILES) = O=C(/C=C/C=C/C=C/C1CCCCC1)NC1=C[C@@](O)(/C=C/C=C/C=C/C(=O)NC2=C(O)CCC2=O)[C@@H]2O[C@@H]2C1=O; cell line = RKO; test = cell growth, CellTiter-Glo; setting = 78 h; quantity = GI50; result = 20900 nM
Structure (SMILES) = COc1cnc2cccc(N3CCc4c(cc(Cn5ccnc5C)cc4-c4cn(C)nc4C(F)(F)F)C3=O)c2c1; cell line = COV504; test = cell growth, inhibitor; setting = 120 h; quantity = EC50; result = 75.4 nM
Structure (SMILES) = Cn1cc(-c2ccc(-c3cncc(Cl)c3N3CCC4(CCNC4=O)CC3)cc2)cn1; cell line = COLO 205; test = gene expression, microarray, refers to: SPEF1 mRNA; setting = concentration not given, 6 h; how to read = baseline: untreated cells; quantity = log2 fold change; result = 2.18
Structure (SMILES) = CCn1cc(-c2cc(Cn3ccnc3)cc3c2CCN([C@H](c2cc(OC)ccn2)C2CC2)C3=O)c(C(F)(F)F)n1; cell line = BXPC-3; test = cell growth, inhibitor; setting = 120 h; quantity = EC50; result = 3230 nM
Structure (SMILES) = CC(C)(c1ccc(O)cc1)c1ccc(O)cc1; cell line = HepG2 spheroids; test = Hoechst flow cytometry; setting = 10 µM, 96 h; quantity = G2 phase cells; result = 13.7 ± 1.95%
Structure (SMILES) = CN(CCOc1ccc(NS(C)(=O)=O)cc1)CCc1ccc(NS(C)(=O)=O)cc1; cell line = primary rat hippocampal/cortical neuron-glia cultures; setting = 1 µM, with: 1 µM α-synuclein oligomers; quantity = reversal of trafficking deficit; result = 41.9%
Structure (SMILES) = CC/C(=N\NC(=O)NCc1cccc(O)c1)c1ccc(O)c(C)c1O; cell line = SK-OV-3; test = gene expression, microarray, refers to: ADRB2; setting = 10 µM, 24 h; how to read = baseline: DMSO; quantity = log ratio; result = 3.22
Structure (SMILES) = CC1(C)CCC(c2ccc(Cl)cc2)=C(CN2CCN(c3ccc(C(=O)NS(=O)(=O)c4ccc(N[C@H](CCN5CCOCC5)CSc5ccccc5)c(S(=O)(=O)C(F)(F)F)c4)cc3)CC2)C1; cell line = HD-MB03; test = cell growth; setting = 168 h, DMSO; quantity = IC50; result = 83.1 nM
Structure (SMILES) = Nc1cccc2c1CN(C1CCC(=O)NC1=O)C2=O (stereo not drawn); cell line = bone marrow CD138+ myeloma cells; test = XTT; setting = 1.2 µM, phenol red-free RPMI; quantity = viability; result = 77%
Structure (SMILES) = Cc1c(C)c2c(c(C)c1O)CCC(C)(COc1ccc(CC3SC(=O)NC3=O)cc1)O2 (stereo not drawn); cell line = hepatocytes, iPSC-derived, W2 line; test = cell viability, RealTime-Glo MT; setting = 24 h, differentiation day 23; quantity = IC50; result = 57000 nM
Structure (SMILES) = Nc1cccc2c1C(=O)N([C@@H]1CCCNC1)C2=O; cell line = RAW 264.7; test = refers to: IL-6; setting = 30 µM, with: LPS; quantity = inhibition; result = 40%
Structure (SMILES) = Cc1cnc(NC2CCOCC2)nc1-n1cnc(C(=O)NC(CN)c2cc(F)cc(Cl)c2)c1 (stereo not drawn); cell line = A-375; test = flow cytometry; setting = 1 µM, 24 h; quantity = sub-G0 cells; result = 0%
Structure (SMILES) = CC[C@]1(O)C[C@@H]2CN(CCc3c([nH]c4ccccc34)[C@@](C(=O)OC)(c3cc4c(cc3OC)N(C)[C@H]3[C@@](O)(C(=O)OC)[C@H](OC(C)=O)[C@]5(CC)C=CCN6CC[C@]43[C@@H]65)C2)C1; cell line = HD-MB03; test = cell growth; setting = 168 h, single agent; quantity = IC50; result = 25.1 nM
Structure (SMILES) = CCn1cc(-c2cc(Cn3ccoc3=N)cc3c2CCN([C@@H](C)c2cc(OC)ccn2)C3=O)c(C(F)(F)F)n1; cell line = Hs 294T; test = cell growth, inhibitor; setting = 120 h; quantity = EC50; result = 38.3 nM
Structure (SMILES) = Nc1cc(C(F)(F)F)c(-c2nc(N3CCOCC3)nc(N3CCOCC3)n2)cn1; cell line = HD-MB03; test = cell growth; setting = 168 h, single agent; quantity = IC50; result = 967 nM
Structure (SMILES) = Cn1c(Nc2nc3ccc(C(F)(F)F)cc3s2)nc2cc(C(=O)NCCOCCO)ccc21; cell line = SH-SY5Y; test = RNA-seq, refers to: TGM2 mRNA; setting = 5 µM, 5 h; how to read = baseline: untreated cells; quantity = fold change; result = 2.12
Structure (SMILES) = CC(=O)CC(c1ccccc1)c1c(O)c2ccccc2oc1=O (stereo not drawn); cell line = double-gene knockout reporter cells; test = GGCX-mediated carboxylation; setting = 10 µM, with: vitamin K 10 µM; quantity = reporter protein carboxylation; result = no effect

Some of these lines once more:
Structure (SMILES) = O=C1c2ccncc2C(=O)c2c1[nH]c1ccccc21; cell line = pulmonary arterial smooth muscle cells, PAH patient; test = no effect; setting = concentration not given; quantity = total Drp1 protein level; result = no effect
Structure (SMILES) = CCCn1c(=O)c2[nH]c(-c3ccc(OCC(=O)Nc4ccc(C#N)cc4)cc3)nc2n(CCC)c1=O; cell line = H9c2; test = agonist; setting = concentration not given, 20 min, A2B receptor-mediated, with: pertussis toxin overnight; quantity = ERK1/2 activation; result = inhibited
